Experimental data gathered from unrelated publications.
Parts stem from different laboratories: compare values within a part only.

Study 1 — mode: inhibitor; concentration: 20 µM
Target: Replicase polyprotein 1ab, nsp13 helicase (rep, Severe acute respiratory syndrome coronavirus 2, UniProt P0DTD1)
SMILES | inhibition [%]
Cc1cc(/C=C/c2ccc3cc(N(C)C)ccc3[n+]2C)c(C)n1-c1ccccc1 | -2.78
O=C(CSc1nc2c(c(=O)n1-c1ccccc1)SCC2)Nc1ccc(-c2ccccc2)cn1 | 2.13
CC(=O)N(O)C/C=C/c1cccc(Oc2ccccc2)c1 | 4.73
O=C(NCCCN1CCOCC1)c1cnn2c(-c3ccccc3)cc(-c3ccccc3)nc12 | 4.63
CCc1ccc(C(=O)C(C)CN2CCCCC2)cc1 (centres unmarked) | -3.27
O=C1O[C@H](CO)[C@@H](O)[C@H](O)[C@H]1O | -1.42
FC(F)(F)c1ccc(CNc2ccc(Cc3c[nH]c4ncc(Cl)cc34)cn2)cn1 | 4.74
Cc1ccc(S(N)(=O)=O)cc1 | 3.13
CCCCC[C@H](O)/C=C/[C@H]1[C@H](O)CC(=O)[C@@H]1C/C=C\CCCC(=O)O | 0.95
Cc1cc(C)cc(C(=O)NOCCCCCC(=O)NO)c1 | 7.38
N=C(N)NC(=O)Cc1c(Cl)cccc1Cl | 2.76
CC(=O)[C@@]12O[C@](C)(c3ccccc3)O[C@@H]1C[C@H]1[C@@H]3CCC4=CC(=O)CC[C@]4(C)[C@H]3CC[C@@]12C | 7.01
O=C1NCCc2[nH]c(-c3ccncc3)cc21 | 7.01
O=C(O)CC1CC(c2ccccc2)=NO1 (centres unmarked) | 8.09
Nc1nccs1 | 5.23
O=C(O)c1ccc(/C=C2\SC(=S)N(c3cccc(C(F)(F)F)c3)C2=O)cc1 | 3.89
O=c1cc(N2CCNCC2)oc2c(-c3ccccc3)cccc12 | 3.4
O=C(NC1CCN(CCc2c[nH]c3ccccc23)CC1)c1ccccc1 | -2.08
Cn1c(-c2ccccc2)nnc1S(C)(=O)=O | 5.02
CCCCOC(=O)c1ccc(O)cc1 | -4.97
C[C@]12C=CC(=O)N[C@@H]1CC[C@@H]1[C@@H]2CC[C@]2(C)[C@@H](C(=O)Nc3cc(C(F)(F)F)ccc3C(F)(F)F)CC[C@@H]12 | 10.1
CC(=O)c1cc([N+](=O)[O-])c(Sc2cccc(Cl)c2Cl)s1 | -0.21
OCC(Br)(Br)Br | -3.29
CCCCCC(=O)O[C@]1(C(C)=O)CC[C@H]2[C@@H]3CCC4=CC(=O)CC[C@]4(C)[C@H]3CC[C@@]21C | -6.02
CCCCCCCCCCCCCCCCCCCCCC(=O)Nc1ccn([C@@H]2O[C@H](CO)[C@@H](O)[C@@H]2O)c(=O)n1 | 2.47

Study 2 — method: protein binding microarray; form: double-stranded DNA, one strand shown; medium: in vitro; concentration: not given; relative to: not given; direction: higher = stronger binding
Target: Histone acetyltransferase KAT6A, winged helix 1, GST fusion (KAT6A, Homo sapiens, UniProt Q92794, residues 1-85)
Setting: 8-mer, flanks averaged, mean of 2 arrays, mostly near background
Target sequence (chain): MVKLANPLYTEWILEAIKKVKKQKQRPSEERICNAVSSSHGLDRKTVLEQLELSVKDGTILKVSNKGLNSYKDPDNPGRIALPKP
Oligonucleotide | E-score
ATTCGTCA | -0.263
AATCTGGG | -0.187
GTGCTTCA | -0.204
CAGGAAAC | -0.158
CGCAGACG | 0.258
CTCTTTAC | 0.0526
GCCCCAAC | -0.233
ATTTTCCA | -0.12

Study 3 — read-out: enzyme activity; concentration: 20 µM; setting: with DTT
Target: Replicase polyprotein 1ab, main protease (rep, Severe acute respiratory syndrome coronavirus 2, UniProt P0DTD1)
SMILES | inhibition [%]
O=C1/C(=C/c2ccc([N+](=O)[O-])cc2)CS(=O)(=O)C/C1=C\c1ccc([N+](=O)[O-])cc1 | -14.4
Cc1ccc(-n2sc3ccccc3c2=O)cc1 | 99.4
Nc1ccc(O)c2ncccc12 | 98.2
COc1ccc(OC)c2c(=S)c3ccccc3[nH]c12 | -11.4
CN1CCN(C(=O)c2ccc(-c3ccc4c(C=O)c(O)ccc4c3)s2)CC1 | 66.5

Study 4 — cell line: HEK-293T; organism: VSV pseudotyped with SARS-CoV-2 spike; concentration: 10 µM; time: 16 h
SMILES | pseudovirus infection [%]
c1ccc([C@H]2CN3CCSC3=N2)cc1 | 75.1
NNc1nncc2ccccc12 | 68
O=C(O)c1cccnc1 | 75.2
Clc1ccc(C(Cn2ccnc2)OCc2ccsc2Cl)c(Cl)c1 (centres unmarked) | 72.2

Study 5 — method: universal PBM; form: double-stranded DNA, one strand shown; medium: in vitro; concentration: 600 nM; direction: higher = stronger binding
Target: Sal-like protein 4, full length isoform A (SALL4, Homo sapiens, UniProt Q9UJQ4, residues 1-1053)
UniProt Q9UJQ4, sequence (whole entry, looked up): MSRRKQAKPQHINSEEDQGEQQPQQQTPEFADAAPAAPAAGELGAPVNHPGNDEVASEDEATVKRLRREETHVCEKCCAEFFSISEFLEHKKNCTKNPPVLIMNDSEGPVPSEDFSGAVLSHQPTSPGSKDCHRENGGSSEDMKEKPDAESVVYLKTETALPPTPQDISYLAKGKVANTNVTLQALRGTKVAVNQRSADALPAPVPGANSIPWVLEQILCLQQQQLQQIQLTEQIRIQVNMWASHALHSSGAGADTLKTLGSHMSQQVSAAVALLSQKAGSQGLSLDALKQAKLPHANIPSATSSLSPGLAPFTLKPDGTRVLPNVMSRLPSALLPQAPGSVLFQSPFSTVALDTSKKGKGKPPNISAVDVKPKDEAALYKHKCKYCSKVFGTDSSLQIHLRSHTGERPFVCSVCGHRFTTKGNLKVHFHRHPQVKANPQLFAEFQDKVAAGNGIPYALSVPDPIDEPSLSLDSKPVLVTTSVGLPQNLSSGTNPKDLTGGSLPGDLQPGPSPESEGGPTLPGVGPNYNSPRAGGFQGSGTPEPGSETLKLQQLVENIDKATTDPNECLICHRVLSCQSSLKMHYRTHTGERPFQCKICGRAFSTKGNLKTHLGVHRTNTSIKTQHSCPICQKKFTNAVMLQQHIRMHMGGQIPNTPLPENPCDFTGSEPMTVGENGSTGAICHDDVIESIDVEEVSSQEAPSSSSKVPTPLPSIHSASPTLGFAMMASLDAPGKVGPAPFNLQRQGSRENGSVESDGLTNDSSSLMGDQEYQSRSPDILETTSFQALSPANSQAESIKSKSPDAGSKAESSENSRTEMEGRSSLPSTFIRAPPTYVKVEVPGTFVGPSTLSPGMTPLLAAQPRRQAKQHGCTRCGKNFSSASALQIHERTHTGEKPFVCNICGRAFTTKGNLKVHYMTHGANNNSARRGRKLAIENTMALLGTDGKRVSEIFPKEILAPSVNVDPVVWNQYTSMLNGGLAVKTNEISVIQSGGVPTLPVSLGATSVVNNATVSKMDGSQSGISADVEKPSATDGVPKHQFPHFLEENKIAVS
Setting: 8-mer, flanks averaged, mean of replicates
Oligonucleotide | E-score
TCCCACCA | -0.191
GGGTACGA | -0.221
CGTACAGC | -0.111
ACACCCAG | -0.257
AGTGCACT | 0.0802
CGAAACGC | -0.245
CCTACATC | 0.0338
CGTAGTCC | -0.199

Excerpt of the above (study 1):
SMILES | inhibition [%]
N=C(N)NC(=O)Cc1c(Cl)cccc1Cl | 2.76
CC(=O)[C@@]12O[C@](C)(c3ccccc3)O[C@@H]1C[C@H]1[C@@H]3CCC4=CC(=O)CC[C@]4(C)[C@H]3CC[C@@]12C | 7.01
O=C1NCCc2[nH]c(-c3ccncc3)cc21 | 7.01
O=C(O)CC1CC(c2ccccc2)=NO1 (centres unmarked) | 8.09
Nc1nccs1 | 5.23
O=C(O)c1ccc(/C=C2\SC(=S)N(c3cccc(C(F)(F)F)c3)C2=O)cc1 | 3.89
